# Measurements collected from several papers.
# Lines come from different studies, so protocols differ.
# B1: EFR3A 721-791 K732E (Homo sapiens, UniProt Q14156); chain SNTEEITFEALEKAIDTSGMEEQEKEKRRLVIEKFQKAPFEEIAAQCESKANLLHDRLAQILELTIRPPPS
# B2: BZIP28 1-322 (Arabidopsis thaliana, UniProt Q9SG86); sequence looked up; chain MTESTSVVAPPPEIPNLNPSMFSESDLFSIPPLDPLFLSDSDPISMDAPISDLDFLLDDENGDFADFDFSFDNSDDFFDFDLSEPAVVIPEEIGNNRSNLDSSENRSGDGGLEGRSESVHSQVSSQGSKTFVSDTVDASSSPESSNHQKSSVSKRKKENGDSSGELRSCKYQKSDDKSVATNNEGDDDDDKRKLIRQIRNRESAQLSRLRKKQQTEELERKVKSMNATIAELNGKIAYVMAENVALRQQMAVASGAPPMNPYMAAPPLPYQWMPYPPYPVRGYGSQTPLVPIPKLNPKPVSSCRPKKAESKKNEGKSKLKKV
# B3: BDP1 1-484 (Homo sapiens, UniProt A6H8Y1); chain MFRRARLSVKPNVRPGVGARGSTASNPQRGRESPRPPDPATDSASKPAEPTDVPTVDFGGAEPQEKAPRSSTEKTGGDNDVEESSRSSSTVSQRRKRISSTSSLVKSSVSVPSESHPLSTINQEAPQPTATSTKEKQPCSDRYRIYKAQKLREMLKEELRKEKKQWKNKYAINESQRPPDRSKMTMRDFIYYLPDNNPMTSSLEQEKKTEKPSTPVQTREQEGKSTPNAEDNEMEEETDDGPLLVPRVKVAEDGSIILDEESLTVEVLRTKGPCVVEENDPIFERGSTTTYSSFRKNYYSKPWSNKETDMFFLAISMVGTDFSMIGQLFPHRARIEIKNKFKREEKTNGWRIDKAFQEKRPFDFDFFAHLLQKVLAEEEKRKQKSVKNHSLKEKKSTKPRKNVKVKKVACEGVNNDPDESMSSRISDTERSQKDAQTVEEESLTLSREDAEQVALEVDLNQKKRRRKKQDGANELGVNNLLENA
# B4: HY5 S36A (Arabidopsis thaliana, UniProt O24646); sequence looked up; chain MQEQATSSLAASSLPSSSERSSSSAPHLEIKEGIEADEEIRRVPEFGGEAVGKETSGRESGSATGQERTQATVGESQRKRGRTPAEKENKRLKRLLRNRVSAQQARERKKAYLSELENRVKDLENKNSELEERLSTLQNENQMLRHILKNTTGNKRGGGGGSNADASL
# B5: BZR1 1-109 (Arabidopsis thaliana, UniProt Q8S307); sequence looked up; chain MTSDGATSTSAAAAAAAAAAARRKPSWRERENNRRRERRRRAVAAKIYTGLRAQGDYNLPKHCDNNEVLKALCVEAGWVVEEDGTTYRKGCKPLPGEIAGTSSRVTPYS
# B6: scFv; chain EVQLVQSGAGVKKPGSSVKVSCKSSGGTSGSSAVSWIRQAPGQGVEWMGGITSIFGPANYAQKFQDRLKITADKATNTVYMELSGLTFEDTAVYYCARVGDYNFWNGHYRSGYYFDLWGRGTLVTVSSGGGGSGGGGSGGGGSAQSVLTQPPSASGTPGQRVTISCSGSSSNIGSNTVNWYQQLPGTAPKLLIYSNTQRPSGVPDRFSGSKSATSASLAISGLQSEDEADYYCAAWDDSLNGHVVFGGGTKVTVLGAAAENLYFQ
# B7: POLA1 1265-1462 (Homo sapiens, UniProt P09884); sequence looked up; chain AQLTDEEKYRDCERFKCPCPTCGTENIYDNVFDGSGTDMEPSLYRCSNIDCKASPLTFTVQLSNKLIMDIRRFIKKYYDGWLICEEPTCRNRTRHLPLQFSRTGPLCPACMKATLQPEYSDKSLYTQLCFYRYIFDAECALEKLTTDHEKDKLKKQFFTPKVLQDYRKLKNTAEQFLSRSGYSEVNLSKLFAGCAVKS
# B8: PUM1 701-1186 (Homo sapiens, UniProt Q14671); sequence looked up; chain TGSGSRRDSLTGSSDLYKRTSSSLTPIGHSFYNGLSFSSSPGPVGMPLPSQGPGHSQTPPPSLSSHGSSSSLNLGGLTNGSGRYISAAPGAEAKYRSASSASSLFSPSSTLFSSSRLRYGMSDVMPSGRSRLLEDFRNNRYPNLQLREIAGHIMEFSQDQHGSRFIQLKLERATPAERQLVFNEILQAAYQLMVDVFGNYVIQKFFEFGSLEQKLALAERIRGHVLSLALQMYGCRVIQKALEFIPSDQQNEMVRELDGHVLKCVKDQNGNHVVQKCIECVQPQSLQFIIDAFKGQVFALSTHPYGCRVIQRILEHCLPDQTLPILEELHQHTEQLVQDQYGNYVIQHVLEHGRPEDKSKIVAEIRGNVLVLSQHKFASNVVEKCVTHASRTERAVLIDEVCTMNDGPHSALYTMMKDQYANYVVQKMIDVAEPGQRKIVMHKIRPHIATLRKYTYGKHILAKLEKYYMKNGVDLGPICGPPNGII
# B9: PUM1 800-1186 (Homo sapiens, UniProt Q14671); chain SASSLFSPSSTLFSSSRLRYGMSDVMPSGRSRLLEDFRNNRYPNLQLREIAGHIMEFSQDQHGSRFIQLKLERATPAERQLVFNEILQAAYQLMVDVFGNYVIQKFFEFGSLEQKLALAERIRGHVLSLALQMYGCRVIQKALEFIPSDQQNEMVRELDGHVLKCVKDQNGNHVVQKCIECVQPQSLQFIIDAFKGQVFALSTHPYGCRVIQRILEHCLPDQTLPILEELHQHTEQLVQDQYGNYVIQHVLEHGRPEDKSKIVAEIRGNVLVLSQHKFASNVVEKCVTHASRTERAVLIDEVCTMNDGPHSALYTMMKDQYANYVVQKMIDVAEPGQRKIVMHKIRPHIATLRKYTYGKHILAKLEKYYMKNGVDLGPICGPPNGII
# B10: UVR8 R338A (Arabidopsis thaliana, UniProt Q9FN03); sequence looked up; chain MAEDMAADEVTAPPRKVLIISAGASHSVALLSGDIVCSWGRGEDGQLGHGDAEDRPSPTQLSALDGHQIVSVTCGADHTVAYSQSGMEVYSWGWGDFGRLGHGNSSDLFTPLPIKALHGIRIKQIACGDSHCLAVTMEGEVQSWGRNQNGQLGLGDTEDSLVPQKIQAFEGIRIKMVAAGAEHTAAVTEDGDLYGWGWGRYGNLGLGDRTDRLVPERVTSTGGEKMSMVACGWRHTISVSYSGALYTYGWSKYGQLGHGDLEDHLIPHKLEALSNSFISQISGGWRHTMALTSDGKLYGWGWNKFGQVGVGNNLDQCSPVQVRFPDDQKVVQVSCGWAHTLAVTERNNVFAWGRGTNGQLGIGESVDRNFPKIIEALSVDGASGQHIESSNIDPSSGKSWVSPAERYAVVPDETGLTDGSSKGNGGDISVPQTDVKRVRI
# B11: ALAS2 54-587 (Homo sapiens, UniProt P22557); sequence looked up; chain KATKAGGDSPSWAKGHCPFMLSELQDGKSKIVQKAAPEVQEDVKAFKTDLPSSLVSVSLRKPFSGPQEQEQISGKVTHLIQNNMPGNYVFSYDQFFRDKIMEKKQDHTYRVFKTVNRWADAYPFAQHFSEASVASKDVSVWCSNDYLGMSRHPQVLQATQETLQRHGAGAGGTRNISGTSKFHVELEQELAELHQKDSALLFSSCFVANDSTLFTLAKILPGCEIYSDAGNHASMIQGIRNSGAAKFVFRHNDPDHLKKLLEKSNPKIPKIVAFETVHSMDGAICPLEELCDVSHQYGALTFVDEVHAVGLYGSRGAGIGERDGIMHKIDIISGTLGKAFGCVGGYIASTRDLVDMVRSYAAGFIFTTSLPPMVLSGALESVRLLKGEEGQALRRAHQRNVKHMRQLLMDRGLPVIPCPSHIIPIRVGNAALNSKLCDLLLSKHGIYVQAINYPTVPRGEELLRLAPSPHHSPQMMEDFVEKLLLAWTAVGLPLQDVSVAACNFCRRPVHFELMSEWERSYFGNMGPQYVTTYA
# B12: cheW (Escherichia coli, UniProt P0A964); chain MTGMTNVTKLASEPSGQEFLVFTLGDEEYGIDILKVQEIRGYDQVTRIANTPAFIKGVTNLRGVIVPIVDLRIKFSQVDVDYNDNTVVIVLNLGQRVVGIVVDGVSDVLSLTAEQIRPAPEFAVTLSTEYLTGLGALGDRMLILVNIEKLLNSEEMALLDSAASEVA
# B13: POMP (Homo sapiens, UniProt Q9Y244); chain MNARGLGSELKDSIPVTELSASGPFESHDLLRKGFSCVKNELLPSHPLELSEKNFQLNQDKMNFSTLRNIQGLFAPLKLQMEFKAVQQVQRLPFLSSSNLSLDVLRGNDETIGFEDILNDPSQSEVMGEPHLMVEYKLGLL
# B14: DMC1 (Homo sapiens, UniProt Q14565); chain MKEDQVVAEEPGFQDEEESLFQDIDLLQKHGINVADIKKLKSVGICTIKGIQMTTRRALCNVKGLSEAKVDKIKEAANKLIEPGFLTAFEYSEKRKMVFHITTGSQEFDKLLGGGIESMAITEAFGEFRTGKTQLSHTLCVTAQLPGAGGYPGGKIIFIDTENTFRPDRLRDIADRFNVDHDAVLDNVLYARAYTSEHQMELLDYVAAKFHEEAGIFKLLIIDSIMALFRVDFSGRGELAERQQKLAQMLSRLQKISEEYNVAVFVTNQMTADPGATMTFQADPKKPIGGHILAHASTTRISLRKGRGELRIAKIYDSPEMPENEATFAITAGGIGDAKE
# B15: rpoN 60-135 (Aquifex aeolicus, UniProt O66858); sequence looked up; chain KETVPYQIPYTPSELEELQQNIKLELEGKEQELALELLNYLNEKGFLSKSVEEISDVLRCSVEELEKVRQKVLRLE
# B16: McsA (Bacillus subtilis, UniProt P37569); chain MICQECHERPATFHFTKVVNGEKIEVHICEQCAKENSDSYGISANQGFSIHNLLSGLLNMDSSFQNAGTQMFSHSEQISACPKCGMTFQQFRKIGRFGCSECYKTFHSNITPILRKVHSGNTVHAGKIPKRIGGNLHVRRQIDMLKKELESLIHQEEFENAAHVRDQIRLLEQSLKSTDSEEEQE
# B17: NR4A2 1-165 (Homo sapiens, UniProt P43354); sequence looked up; chain MPCVQAQYGSSPQGASPASQSYSYHSSGEYSSDFLTPEFVKFSMDLTNTEITATTSLPSFSTFMDNYSTGYDVKPPCLYQMPLSGQQSSIKVEDIQMHNYQQHSHLPPQSEEMMPHSGSVYYKPSSPPTPTTPGFQVQHSPMWDDPGSLHNFHQNYVATTHMIEQ
# B18: SIS1 residues 1-81 (Saccharomyces cerevisiae, UniProt P25294); chain SMVKETKLYDLLGVSPSANEQELKKGYRKAALKYHPDKPTGDTEKFKEISEAFEILNDPQKREIYDQYGLEAARSGGPSFGP
# Sequence of UniProt Q06327 (whole entry, unmodified, looked up): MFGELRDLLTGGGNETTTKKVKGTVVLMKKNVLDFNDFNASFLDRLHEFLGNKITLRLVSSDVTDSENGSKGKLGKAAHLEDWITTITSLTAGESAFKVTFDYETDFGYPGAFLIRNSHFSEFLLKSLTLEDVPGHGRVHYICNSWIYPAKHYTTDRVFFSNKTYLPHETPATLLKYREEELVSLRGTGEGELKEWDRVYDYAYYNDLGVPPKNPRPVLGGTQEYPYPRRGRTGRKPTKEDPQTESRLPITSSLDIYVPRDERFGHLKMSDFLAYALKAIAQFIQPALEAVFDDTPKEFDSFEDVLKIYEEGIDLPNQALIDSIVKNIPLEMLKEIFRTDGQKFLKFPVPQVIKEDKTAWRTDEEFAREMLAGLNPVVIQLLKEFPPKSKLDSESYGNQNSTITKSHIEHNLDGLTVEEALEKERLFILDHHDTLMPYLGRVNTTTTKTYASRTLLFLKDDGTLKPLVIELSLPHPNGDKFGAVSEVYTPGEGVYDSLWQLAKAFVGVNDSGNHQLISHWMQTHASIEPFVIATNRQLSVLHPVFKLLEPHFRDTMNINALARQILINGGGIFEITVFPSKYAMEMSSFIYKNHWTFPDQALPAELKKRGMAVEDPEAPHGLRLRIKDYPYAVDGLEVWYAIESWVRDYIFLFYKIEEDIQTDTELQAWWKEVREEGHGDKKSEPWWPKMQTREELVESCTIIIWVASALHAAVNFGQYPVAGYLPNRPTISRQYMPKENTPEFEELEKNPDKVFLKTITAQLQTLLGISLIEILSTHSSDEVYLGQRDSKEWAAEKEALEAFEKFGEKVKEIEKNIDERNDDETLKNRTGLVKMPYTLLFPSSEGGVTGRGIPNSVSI
# Sequence of UniProt P49643 (whole entry, unmodified, looked up): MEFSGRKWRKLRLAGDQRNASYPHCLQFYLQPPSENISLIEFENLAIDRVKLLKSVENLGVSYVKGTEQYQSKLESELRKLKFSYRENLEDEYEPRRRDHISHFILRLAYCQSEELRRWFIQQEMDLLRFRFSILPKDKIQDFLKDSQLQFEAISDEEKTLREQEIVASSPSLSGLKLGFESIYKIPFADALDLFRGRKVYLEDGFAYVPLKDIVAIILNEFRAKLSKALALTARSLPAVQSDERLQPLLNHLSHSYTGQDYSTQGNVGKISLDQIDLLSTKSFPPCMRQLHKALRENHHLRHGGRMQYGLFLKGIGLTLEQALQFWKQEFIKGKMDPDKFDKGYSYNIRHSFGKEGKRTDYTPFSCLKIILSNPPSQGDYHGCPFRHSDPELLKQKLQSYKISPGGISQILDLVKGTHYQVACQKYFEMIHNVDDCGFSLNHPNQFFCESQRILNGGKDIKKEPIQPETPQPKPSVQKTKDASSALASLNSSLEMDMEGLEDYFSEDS
# Sequence of UniProt P92973 (whole entry, looked up): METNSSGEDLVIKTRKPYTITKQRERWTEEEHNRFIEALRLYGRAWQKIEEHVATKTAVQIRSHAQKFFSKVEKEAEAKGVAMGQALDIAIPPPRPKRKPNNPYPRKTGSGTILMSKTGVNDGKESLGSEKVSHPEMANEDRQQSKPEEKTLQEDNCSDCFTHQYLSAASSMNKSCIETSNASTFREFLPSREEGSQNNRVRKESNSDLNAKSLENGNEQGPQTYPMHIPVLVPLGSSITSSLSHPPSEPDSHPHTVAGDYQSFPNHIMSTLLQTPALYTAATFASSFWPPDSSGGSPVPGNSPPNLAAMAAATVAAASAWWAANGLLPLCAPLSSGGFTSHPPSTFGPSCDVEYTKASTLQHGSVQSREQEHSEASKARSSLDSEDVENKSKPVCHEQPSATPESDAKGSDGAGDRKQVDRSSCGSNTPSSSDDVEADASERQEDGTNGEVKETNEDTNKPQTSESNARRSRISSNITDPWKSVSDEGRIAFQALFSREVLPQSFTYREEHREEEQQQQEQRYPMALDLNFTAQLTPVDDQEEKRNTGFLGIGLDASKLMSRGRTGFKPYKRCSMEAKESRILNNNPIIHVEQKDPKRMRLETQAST
# Sequence of UniProt Q92698 (whole entry, looked up): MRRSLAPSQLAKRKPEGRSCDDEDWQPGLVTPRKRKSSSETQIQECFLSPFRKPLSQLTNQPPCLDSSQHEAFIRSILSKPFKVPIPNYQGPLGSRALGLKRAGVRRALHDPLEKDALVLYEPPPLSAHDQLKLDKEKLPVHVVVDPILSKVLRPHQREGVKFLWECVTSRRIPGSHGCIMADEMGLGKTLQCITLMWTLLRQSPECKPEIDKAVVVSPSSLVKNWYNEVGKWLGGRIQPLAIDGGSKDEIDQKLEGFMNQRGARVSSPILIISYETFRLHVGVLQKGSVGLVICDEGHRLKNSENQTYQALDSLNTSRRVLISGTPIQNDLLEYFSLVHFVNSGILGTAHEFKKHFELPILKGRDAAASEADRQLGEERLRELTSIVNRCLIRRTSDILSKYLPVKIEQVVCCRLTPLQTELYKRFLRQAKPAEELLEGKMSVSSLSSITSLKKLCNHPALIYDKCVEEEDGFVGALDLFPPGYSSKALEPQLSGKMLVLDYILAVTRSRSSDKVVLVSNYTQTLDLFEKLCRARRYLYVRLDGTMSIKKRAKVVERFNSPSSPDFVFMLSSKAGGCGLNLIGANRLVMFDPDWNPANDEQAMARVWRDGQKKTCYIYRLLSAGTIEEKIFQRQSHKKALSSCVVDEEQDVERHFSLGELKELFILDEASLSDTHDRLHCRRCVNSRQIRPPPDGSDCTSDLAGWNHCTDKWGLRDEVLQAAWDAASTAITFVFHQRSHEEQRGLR
# Sequence of UniProt P07363 (whole entry, looked up): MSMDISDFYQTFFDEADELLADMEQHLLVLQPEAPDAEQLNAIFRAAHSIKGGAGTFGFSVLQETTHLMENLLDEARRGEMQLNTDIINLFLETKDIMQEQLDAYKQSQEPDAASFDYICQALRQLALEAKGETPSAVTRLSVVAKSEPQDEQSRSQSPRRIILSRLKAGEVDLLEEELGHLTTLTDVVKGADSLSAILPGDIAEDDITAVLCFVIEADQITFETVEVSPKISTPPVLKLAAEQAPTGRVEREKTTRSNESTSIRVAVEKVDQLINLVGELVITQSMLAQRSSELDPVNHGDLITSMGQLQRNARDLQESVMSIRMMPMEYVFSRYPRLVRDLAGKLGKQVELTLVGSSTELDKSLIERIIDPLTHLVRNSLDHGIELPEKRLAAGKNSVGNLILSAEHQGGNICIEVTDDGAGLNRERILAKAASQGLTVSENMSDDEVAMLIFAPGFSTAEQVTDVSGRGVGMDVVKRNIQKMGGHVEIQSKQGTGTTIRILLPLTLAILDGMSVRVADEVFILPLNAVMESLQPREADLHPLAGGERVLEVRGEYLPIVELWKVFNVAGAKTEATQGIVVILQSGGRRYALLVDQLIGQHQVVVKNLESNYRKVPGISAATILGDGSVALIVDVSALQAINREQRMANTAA
# Sequence of UniProt Q8L6Y1 (whole entry, looked up): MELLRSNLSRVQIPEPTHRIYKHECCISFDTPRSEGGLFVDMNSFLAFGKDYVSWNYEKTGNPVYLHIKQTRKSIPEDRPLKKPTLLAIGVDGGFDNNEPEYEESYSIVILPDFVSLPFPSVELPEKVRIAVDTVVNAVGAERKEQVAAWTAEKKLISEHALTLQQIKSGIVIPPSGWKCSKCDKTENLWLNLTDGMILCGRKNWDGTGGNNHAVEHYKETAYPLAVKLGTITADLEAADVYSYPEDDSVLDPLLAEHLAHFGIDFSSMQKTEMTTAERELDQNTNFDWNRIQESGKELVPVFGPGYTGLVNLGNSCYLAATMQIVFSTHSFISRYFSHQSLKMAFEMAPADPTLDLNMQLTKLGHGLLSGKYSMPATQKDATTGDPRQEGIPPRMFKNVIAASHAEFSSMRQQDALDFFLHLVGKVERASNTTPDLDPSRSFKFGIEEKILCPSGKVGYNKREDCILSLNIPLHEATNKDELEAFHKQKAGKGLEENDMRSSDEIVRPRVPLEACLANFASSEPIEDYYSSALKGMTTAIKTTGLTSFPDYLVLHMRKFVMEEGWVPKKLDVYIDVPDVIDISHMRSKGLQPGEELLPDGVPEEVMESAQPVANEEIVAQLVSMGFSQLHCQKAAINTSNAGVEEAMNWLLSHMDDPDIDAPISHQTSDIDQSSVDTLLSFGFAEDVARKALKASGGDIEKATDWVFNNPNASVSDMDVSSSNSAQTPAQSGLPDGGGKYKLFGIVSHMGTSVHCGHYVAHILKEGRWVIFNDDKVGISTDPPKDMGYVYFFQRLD
# Sequence of UniProt O14818 (whole entry, looked up): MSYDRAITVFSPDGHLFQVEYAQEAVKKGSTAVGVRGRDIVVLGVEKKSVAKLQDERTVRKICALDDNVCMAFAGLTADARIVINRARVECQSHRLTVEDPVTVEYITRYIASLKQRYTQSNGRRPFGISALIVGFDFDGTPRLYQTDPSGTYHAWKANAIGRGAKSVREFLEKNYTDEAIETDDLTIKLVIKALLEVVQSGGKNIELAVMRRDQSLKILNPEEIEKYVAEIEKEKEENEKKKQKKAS
# Sequence of UniProt P20457 (whole entry, looked up): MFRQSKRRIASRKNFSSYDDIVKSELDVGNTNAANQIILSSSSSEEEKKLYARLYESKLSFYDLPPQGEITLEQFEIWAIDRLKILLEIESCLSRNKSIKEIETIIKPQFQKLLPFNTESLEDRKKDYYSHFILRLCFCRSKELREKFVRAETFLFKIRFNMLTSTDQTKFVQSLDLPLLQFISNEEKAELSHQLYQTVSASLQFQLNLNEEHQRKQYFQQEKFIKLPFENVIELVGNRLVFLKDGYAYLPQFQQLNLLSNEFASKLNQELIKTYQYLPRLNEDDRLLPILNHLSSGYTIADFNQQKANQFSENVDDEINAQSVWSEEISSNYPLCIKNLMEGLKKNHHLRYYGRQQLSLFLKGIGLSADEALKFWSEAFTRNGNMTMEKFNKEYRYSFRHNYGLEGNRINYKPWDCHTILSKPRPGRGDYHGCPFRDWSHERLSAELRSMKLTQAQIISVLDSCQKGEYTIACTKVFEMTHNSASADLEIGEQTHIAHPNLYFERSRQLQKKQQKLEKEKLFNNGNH
Molecule,tested on,assay,system,conditions,measurement,value
B1 (EFR3A 721-791 K732E),TTC7B/FAM126A FAM126A 1-308 (Homo sapiens),BLI,,,binding,binds
B2 (BZIP28 1-322),"CCA1 1-405 (Arabidopsis thaliana, UniProt P92973)",pull-down,,,binding,binds
B3 (BDP1 1-484),BRF2/TBP 159-339; full length (Homo sapiens),cryo-EM,,,binding,binds
B4 (HY5 S36A),"UBP14 (Arabidopsis thaliana, UniProt Q8L6Y1)",pull-down,,,binding,binds
B5 (BZR1 1-109),"BRM 689-952 (Arabidopsis thaliana, UniProt Q6EVK6)",GST pull-down,,,binding,binds
B6 (scFv),"SIK3 59-385 C121S/C181S/C333S, pT221 (Homo sapiens, UniProt Q9Y2K2)",crystal structure,scFv,,binding,binds
B7 (POLA1 1265-1462),"PRIM2 1-265 (Homo sapiens, UniProt P49643)",co-purification,,,binding,binds
B8 (PUM1 701-1186),CNOT1/CNOT2/CNOT3 NOT module 1833-2361,pull-down,,,binding,binds
B9 (PUM1 800-1186),CNOT1/CNOT2/CNOT3 C-terminal NOT module 1833-2361,pull-down,,,binding,binds
B10 (UVR8 R338A),"LOX1 (Arabidopsis thaliana, UniProt Q06327)",pull-down,,,binding,binds
B11 (ALAS2 54-587),"CLPX/CLPP CLPP 14-mer, CLPX hexamer, ATPγS-bound 65-633 (Homo sapiens)",co-IP,,,binding,binds
colistin,Klebsiella pneumoniae,broth microdilution,clinical isolate RKI-No_68/16,,MIC,64 µg/mL
"PRI2 (Saccharomyces cerevisiae, UniProt P20457)","POL1 (Saccharomyces cerevisiae, UniProt P13382)",mass photometry,,,binding,binds
B12 (cheW),"cheA 1-654 (Escherichia coli, UniProt P07363)",HDX-MS,,without nucleotide,binding,binds
RPS14 fragment (Kluyveromyces lactis) (sequence not shown),SUI2 fragment (Saccharomyces cerevisiae),cryo-EM structure,,,binding,binds
"EPEVWVVEAEDEPLLA (Lrp10 698-713 (Mus musculus, UniProt Q7TQH7))","AP2A2/AP2B1/AP2M1/AP2S1 core, lacking appendage domains (Mus musculus)",pull-down,peptide,,binding,binds
B13 (POMP),"PSMA7 (Homo sapiens, UniProt O14818)",cryo-EM,,,binding,binds
B14 (DMC1),"RAD54L (Homo sapiens, UniProt Q92698)",SPR,,,binding,binds
B15 (rpoN 60-135),"rpoN 138-240 (Aquifex aeolicus, UniProt O66858)",NMR titration,,,binding,binds
B16 (McsA),"mcsB C167A (Bacillus subtilis, UniProt P37570)",SEC,,,binding,binds
B17 (NR4A2 1-165),"Ncoa1 1-369 (Mus musculus, UniProt P70365)",pull-down,,,binding,binds
"SWC3 (Saccharomyces cerevisiae, UniProt P31376)","VPS72 (Saccharomyces cerevisiae, UniProt Q03388)",cryo-EM,,,binding,binds
B18 (SIS1 residues 1-81),"SSA1 T201A (Saccharomyces cerevisiae, UniProt P10591)",NMR titration,,with: ATP,binding,binds

# For quick reference, copied from above:
Molecule,tested on,assay,system,conditions,measurement,value
"EPEVWVVEAEDEPLLA (Lrp10 698-713 (Mus musculus, UniProt Q7TQH7))","AP2A2/AP2B1/AP2M1/AP2S1 core, lacking appendage domains (Mus musculus)",pull-down,peptide,,binding,binds
B5 (BZR1 1-109),"BRM 689-952 (Arabidopsis thaliana, UniProt Q6EVK6)",GST pull-down,,,binding,binds
